Experimental data from different studies.
Each numbered part is a random draw from the data of one study; scales do not carry over between parts. Values joined by “and” are separate records of one study, mostly repeats; a detail may differ. Changes are numbered by the printed parent chain.
Chain of UniProt P29376 (whole entry, looked up): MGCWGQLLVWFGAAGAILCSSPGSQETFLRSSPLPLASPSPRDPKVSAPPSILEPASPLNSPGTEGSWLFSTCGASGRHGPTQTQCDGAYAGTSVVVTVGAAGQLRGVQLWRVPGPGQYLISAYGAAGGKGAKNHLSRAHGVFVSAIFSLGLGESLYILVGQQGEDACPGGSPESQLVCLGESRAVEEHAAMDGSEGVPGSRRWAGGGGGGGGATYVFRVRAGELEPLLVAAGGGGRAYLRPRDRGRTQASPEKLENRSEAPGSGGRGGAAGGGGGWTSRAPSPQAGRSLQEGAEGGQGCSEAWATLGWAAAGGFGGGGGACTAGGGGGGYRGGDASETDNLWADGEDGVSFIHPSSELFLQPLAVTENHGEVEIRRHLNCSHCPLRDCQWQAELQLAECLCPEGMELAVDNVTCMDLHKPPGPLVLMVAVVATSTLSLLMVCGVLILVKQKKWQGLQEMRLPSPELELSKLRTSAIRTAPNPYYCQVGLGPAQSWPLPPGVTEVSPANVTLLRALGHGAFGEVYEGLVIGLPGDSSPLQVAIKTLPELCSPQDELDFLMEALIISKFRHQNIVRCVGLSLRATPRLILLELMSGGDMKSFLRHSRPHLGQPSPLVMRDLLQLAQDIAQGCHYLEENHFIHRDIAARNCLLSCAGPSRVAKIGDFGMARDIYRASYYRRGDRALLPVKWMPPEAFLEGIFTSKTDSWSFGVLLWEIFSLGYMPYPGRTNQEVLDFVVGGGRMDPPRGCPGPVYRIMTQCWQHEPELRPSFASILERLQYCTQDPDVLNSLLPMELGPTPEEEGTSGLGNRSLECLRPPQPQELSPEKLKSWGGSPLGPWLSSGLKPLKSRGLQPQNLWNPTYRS
Chain of UniProt P51451 (whole entry, looked up): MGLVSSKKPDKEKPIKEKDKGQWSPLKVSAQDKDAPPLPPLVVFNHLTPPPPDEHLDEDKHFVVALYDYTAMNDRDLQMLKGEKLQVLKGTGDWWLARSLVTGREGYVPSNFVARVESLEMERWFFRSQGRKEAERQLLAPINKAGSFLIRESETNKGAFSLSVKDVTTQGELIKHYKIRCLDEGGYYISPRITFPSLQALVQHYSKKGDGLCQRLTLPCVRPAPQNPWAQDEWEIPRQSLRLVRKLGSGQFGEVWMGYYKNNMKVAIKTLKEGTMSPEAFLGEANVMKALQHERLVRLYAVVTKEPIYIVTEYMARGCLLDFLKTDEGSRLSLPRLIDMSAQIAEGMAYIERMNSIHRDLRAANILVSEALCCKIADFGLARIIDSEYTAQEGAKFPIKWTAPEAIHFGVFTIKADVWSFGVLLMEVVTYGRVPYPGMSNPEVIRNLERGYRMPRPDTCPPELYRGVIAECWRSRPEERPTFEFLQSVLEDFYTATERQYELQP
Chain of UniProt Q9H2X6 (whole entry, looked up): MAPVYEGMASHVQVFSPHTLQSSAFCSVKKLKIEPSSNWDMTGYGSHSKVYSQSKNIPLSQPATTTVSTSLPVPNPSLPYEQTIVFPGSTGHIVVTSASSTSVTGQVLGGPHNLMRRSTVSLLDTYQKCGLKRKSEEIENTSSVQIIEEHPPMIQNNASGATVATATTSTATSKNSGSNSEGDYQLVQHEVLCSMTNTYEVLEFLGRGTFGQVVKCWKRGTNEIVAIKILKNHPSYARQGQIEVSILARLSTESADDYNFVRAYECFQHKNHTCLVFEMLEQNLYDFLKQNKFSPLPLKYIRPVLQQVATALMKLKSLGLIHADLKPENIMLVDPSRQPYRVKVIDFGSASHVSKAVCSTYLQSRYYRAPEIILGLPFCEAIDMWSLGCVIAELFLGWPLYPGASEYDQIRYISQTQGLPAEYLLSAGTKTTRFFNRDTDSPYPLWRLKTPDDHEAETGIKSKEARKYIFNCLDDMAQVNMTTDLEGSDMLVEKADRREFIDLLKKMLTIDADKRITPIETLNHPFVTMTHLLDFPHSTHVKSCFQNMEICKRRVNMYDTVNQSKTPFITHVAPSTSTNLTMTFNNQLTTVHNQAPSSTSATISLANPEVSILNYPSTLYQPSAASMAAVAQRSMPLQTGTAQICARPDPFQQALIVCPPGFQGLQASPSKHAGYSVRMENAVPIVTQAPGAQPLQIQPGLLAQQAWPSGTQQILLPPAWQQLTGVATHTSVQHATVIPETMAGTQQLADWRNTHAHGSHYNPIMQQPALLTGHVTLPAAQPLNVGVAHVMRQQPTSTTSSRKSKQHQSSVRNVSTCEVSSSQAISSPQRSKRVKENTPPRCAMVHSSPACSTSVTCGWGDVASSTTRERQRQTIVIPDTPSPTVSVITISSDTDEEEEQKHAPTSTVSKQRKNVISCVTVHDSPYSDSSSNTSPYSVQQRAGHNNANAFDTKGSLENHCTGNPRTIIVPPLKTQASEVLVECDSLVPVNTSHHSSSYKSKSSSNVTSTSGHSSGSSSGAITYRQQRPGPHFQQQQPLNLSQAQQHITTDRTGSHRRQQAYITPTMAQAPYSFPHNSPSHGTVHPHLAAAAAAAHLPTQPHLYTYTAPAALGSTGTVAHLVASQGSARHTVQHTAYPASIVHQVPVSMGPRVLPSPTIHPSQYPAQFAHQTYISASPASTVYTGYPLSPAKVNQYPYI
Chain of UniProt P62344 (whole entry, looked up): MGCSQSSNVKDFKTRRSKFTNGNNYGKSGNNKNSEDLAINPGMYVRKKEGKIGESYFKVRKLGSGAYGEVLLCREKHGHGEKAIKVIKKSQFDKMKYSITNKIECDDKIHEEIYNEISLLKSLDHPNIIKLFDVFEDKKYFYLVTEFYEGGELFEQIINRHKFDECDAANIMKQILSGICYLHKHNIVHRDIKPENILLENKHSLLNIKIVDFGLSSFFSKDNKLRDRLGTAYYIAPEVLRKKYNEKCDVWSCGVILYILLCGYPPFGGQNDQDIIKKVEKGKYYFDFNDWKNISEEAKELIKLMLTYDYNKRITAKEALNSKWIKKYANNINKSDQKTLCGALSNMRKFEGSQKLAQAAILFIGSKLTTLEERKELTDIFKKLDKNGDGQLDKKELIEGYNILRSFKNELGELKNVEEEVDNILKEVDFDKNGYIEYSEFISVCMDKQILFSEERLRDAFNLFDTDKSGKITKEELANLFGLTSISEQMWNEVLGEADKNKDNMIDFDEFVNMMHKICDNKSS
Chain of UniProt O75716 (whole entry, looked up): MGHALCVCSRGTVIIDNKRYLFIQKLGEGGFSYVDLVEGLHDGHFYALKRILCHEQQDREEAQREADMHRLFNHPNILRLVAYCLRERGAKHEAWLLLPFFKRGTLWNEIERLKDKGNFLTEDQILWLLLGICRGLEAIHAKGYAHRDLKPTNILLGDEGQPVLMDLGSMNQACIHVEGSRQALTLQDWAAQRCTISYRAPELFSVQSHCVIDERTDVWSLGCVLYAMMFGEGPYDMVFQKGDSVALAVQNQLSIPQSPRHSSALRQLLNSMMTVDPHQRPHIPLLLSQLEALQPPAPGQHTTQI
Chain of UniProt P61075 (whole entry, looked up): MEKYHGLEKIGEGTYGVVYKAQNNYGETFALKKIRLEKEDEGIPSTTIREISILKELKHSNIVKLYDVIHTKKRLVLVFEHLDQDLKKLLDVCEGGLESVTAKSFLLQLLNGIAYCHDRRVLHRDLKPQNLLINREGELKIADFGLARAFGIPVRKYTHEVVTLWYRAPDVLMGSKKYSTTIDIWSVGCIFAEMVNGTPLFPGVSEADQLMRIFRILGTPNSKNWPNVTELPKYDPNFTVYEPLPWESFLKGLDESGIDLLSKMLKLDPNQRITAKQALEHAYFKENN

Sample 1
Target: HLA class I histocompatibility antigen, C alpha chain, allele C*04:01 (Homo sapiens, UniProt P10321)
Read-out: peptide-MHC binding
Molecule type: peptide
Concentration: concentration not given
`YARNFLIPF` — result for binding: “inactive”.
For `RRFNRTKPM`, binding read “inactive”.
`ISDSAQNMM`: binding “inactive”.
For `IYAAISYMI`, binding read “inactive”.
For `SAYYLDIGF`, binding read “inactive”.
`YMREVGAAL`: binding “inactive”.
Under binding, `FVDTMSIYI` is recorded as “inactive”.
`REMINHYQV`: binding “inactive”.

Sample 2
Structure (SMILES): CC[C@@H](C)c1nc2cc(Nc3ccnc4ccc(S(=O)(=O)C(C)C)cc34)ccc2s1.Cl
It gave 34% and 58.8% and 32.2% and 35.1% and 32.9% for viability (HT-29; necroptosis protection, CCK-8; 1.25 µM, with: TNF-α SMAC mimetic zVAD).
The viability was 107% and 94.7% and 108% and 95.6% (L929 RIPK3 knockout; 12.5 µM, with: zVAD).
L929; CCK-8; 12.5 µM — viability: 111% and 102% and 112% and 113%.
The viability was 103% and 93.8% and 104% and 99.8% and 98.7% (L929 RIPK3 knockout; 1.563 µM, with: zVAD).
The viability was 83.2% and 97.3% and 83.6% and 92.2% (L929; CCK-8; 25 µM).
For L929; CCK-8; 12.5 µM, with: zVAD: viability read 111% and 116% and 110%.
It gave 102% and 111% and 108% and 104% and 98.8% for viability (L929 RIPK3 knockout; 3.125 µM, with: zVAD).
It gave 94.7% and 93.5% and 96.8% and 95.7% and 92.5% for viability (L929; CCK-8; 0.781 µM, with: zVAD).
For HT-29; necroptosis protection, CCK-8; 20 µM, with: TNF-α SMAC mimetic zVAD: viability read 93.2% and 89.1% and 73.7% and 80.5%.
The viability was 46.9% and 39.1% and 38% and 39.6% and 36.5% (L929 RIPK3 knockout; 50 µM).
It gave 47.4% and 51% and 53.1% and 37.3% and 39.7% for viability (L929 RIPK3 knockout; 100 µM, with: zVAD).
For L929; CCK-8; 100 µM: viability read 36.7% and 46.2% and 36.9% and 37.3%.
It gave 78.5% and 97.5% and 93.5% and 86.5% for viability (HT-29; necroptosis protection, CCK-8; 5 µM, with: TNF-α SMAC mimetic zVAD).
It gave 106% and 103% and 104% and 100% for viability (L929; CCK-8; 3.125 µM).
For L929 RIPK3 knockout; 3.125 µM: viability read 96.2% and 97.1% and 98.4% and 102% and 105%.
It gave 103% and 101% and 100% and 98.4% for viability (L929; CCK-8; 0.781 µM).
The viability was 20.1% and 12.7% and 13% (HT-29; necroptosis protection, CCK-8; 0.078 µM, with: TNF-α SMAC mimetic zVAD).

Sample 3
Target: CCND1, cyclin fold, Cln2 fusion (human)
Technique: yeast growth competition, sequencing
Matrix: yeast
Notes: weak parent motif
Baseline: not given
Reading: higher = stronger binding
Starting sequence: viral docking peptide; KKVKRRLFETREL
`R5K`: “normalised enrichment score” 0.301.
`T10A` — result for “normalised enrichment score”: 0.218.
`E9A`: “normalised enrichment score” 0.252.
`E12A` — result for “normalised enrichment score”: 0.24.
Under “normalised enrichment score”, `R5K F8L` is recorded as 0.08.
`R6A` — result for “normalised enrichment score”: 0.309.
`L13A` — result for “normalised enrichment score”: 0.0815.
Under “normalised enrichment score”, `K4A` is recorded as -0.133.

Sample 4
SMILES: N/C(=N\[N+](=O)[O-])N/N=C\c1ccc(-c2cccc([N+](=O)[O-])c2)o1
Read-out: enzyme activity
Action: inhibitor
Concentration: 0.5 µM
The remaining activity was 105% (STK16 (Homo sapiens, UniProt O75716); baseline: control).
For LTK (Homo sapiens, UniProt P29376); radiometric: remaining activity read 102%.
For BLK (Homo sapiens, UniProt P51451); baseline: control: remaining activity read 102%.
HIPK2 (Homo sapiens, UniProt Q9H2X6); baseline: control — remaining activity: 103%.

Further values, each from its own experiment
Read-out: cell-free assay
Technique: competition with immobilised ligand
Concentration: 1 µM
`c1ccc(N2CCN(Cc3nc4ccccc4[nH]3)CC2)nc1` has a remaining binding of 99% (CDPK1 (Plasmodium falciparum, UniProt P62344)).
`CCCOc1ccc([C@@H]2[C@@H](C(=O)O)[C@H](c3ccc4c(c3)OCO4)CN2CC(=O)Nc2c(CC)cccc2CC)cc1` has a remaining binding of 97% (CRK2 (Plasmodium falciparum, UniProt P61075)).

For quick reference, copied from above (sample 4):
The remaining activity was 105% (STK16 (Homo sapiens, UniProt O75716); baseline: control).
For LTK (Homo sapiens, UniProt P29376); radiometric: remaining activity read 102%.
For BLK (Homo sapiens, UniProt P51451); baseline: control: remaining activity read 102%.
HIPK2 (Homo sapiens, UniProt Q9H2X6); baseline: control — remaining activity: 103%.
